# Measured values pooled from the literature.
# Each line is one published result; not all experiments were run side by side. Values joined by “and” are separate records of one study, mostly repeats; a detail may differ. ± marks the error that the study gave.
SMILES,organism,test,test system,conditions,how to read,measurement,result
C#Cc1ccc(O)c(C=NNC(=O)c2ccc(Br)c(Br)c2)c1,Cryptococcus neoformans,,H99,"unit not given, with: fluconazole",lower = more synergy,FICI,1.12
O=C(CNCC1CCCCC1)Nc1cc(C(F)(F)F)ccc1Cl,Plasmodium falciparum,"parasite growth, SYBR Green",,72 h,reference: 3D7-E182D over 3D7,EC50 ratio,8.6
O=C(NC(=O)c1c(F)cccc1F)Nc1ccc(Cl)cc1,Ostrinia furnacalis,leaf dipping,,"500 mg/L, 96 h",,mortality,89.3 ± 3.5%
CNCCC(Oc1ccccc1OC)c1ccccc1 (stereo not shown),Plasmodium falciparum,,W2,,,IC50,0.794 µM
CC(C)[C@@H]1NC(=O)[C@@H](CCCNC(=N)N)NC(=O)[C@H]([C@@H](C)O)NC(=O)[C@@H](CCCNC(=N)N)NC(=O)[C@H](Cc2ccccc2)NC(=O)[C@@H](Cc2ccccc2)NC1=O,Acanthamoeba castellanii,,,trophozoites,,IC50,> 16 µg/mL
CCN(CC)CCO[C@H]1CC[C@@]2(C)C(=CC[C@@H]3[C@@H]2CC[C@]2(C)C(=O)CC[C@@H]32)C1,human rotavirus,"viral replication, focus reduction",MA104,,,EC90,20.9 µM
C#C[C@@]1(O)[C@H](O)[C@@H](CO)O[C@H]1n1ccc2c(N)ncnc21,dengue virus 2,viral replication,"Huh-7.5.1, Renilla luciferase reporter",,,EC90,1.3 µM
OC(Cn1cncn1)(Cn1cncn1)c1ccc(F)cc1F,Alternaria solani,broth microdilution,,,,MLC,32 ± 3 µg/mL
CN(C)c1ccc(O)c2c1C[C@H]1C[C@H]3[C@H](N(C)C)C(O)=C(C(N)=O)C(=O)[C@@]3(O)C(O)=C1C2=O,Plasmodium falciparum,,HB3,,,IC50,5.01 µM
Cc1ccc2[nH]c3c(c2c1)CCCC3NCCc1ccccc1Br (stereo not shown),Streptococcus pneumoniae,,,"concentration not given, 10% fetal bovine serum",reference: without serum,MIC fold change,4
CCCOc1ccc(-c2noc(-c3ccc(CN)cc3)n2)cc1,Clostridioides difficile,spore germination,ATCC 43255,"45 µM, 1 h",,inhibition,12 to 33%
C#Cc1ccc(O)c(C=NNC(=O)c2ccc(C3(C(F)(F)F)N=N3)cc2)c1,Cryptococcus neoformans,,H99,"unit not given, with: fluconazole",lower = more synergy,FICI,0.62
CCSc1nnc(C2CCCN(CC(=O)Nc3cc(C(F)(F)F)ccc3Cl)C2)n1CC (stereo not shown),Plasmodium falciparum,"parasite growth, SYBR Green",3D7 wild type,72 h,,EC50,294 ± 69 nM
CC(C)[C@@H]1NC(=O)[C@@H](CCCN)NC(=O)[C@H]([C@@H](C)O)NC(=O)[C@@H](CCCN)NC(=O)[C@H](Cc2ccccc2)NC(=O)[C@@H](C)NC(=O)[C@@H](C(C)C)NC(=O)[C@@H](C)NC(=O)[C@H](Cc2c[nH]c3ccccc23)NC(=O)[C@@H](Cc2c[nH]c3ccccc23)NC1=O,Acanthamoeba castellanii,,,trophozoites,,IC50,> 16 µg/mL
CNCC(=O)N[C@@H](CO)C(=O)N[C@H]1[C@H](O)[C@@H](O)[C@H](n2ccc(N)nc2=O)O[C@@H]1C(N)=O,Pepper mild mottle virus,,,500 µg/mL,,inactivation activity,70% and 73%
C[C@@H](O)[C@H]1C(=O)N2C(C(=O)O)=C(S[C@@H]3CN[C@H](C(=O)N(C)C)C3)[C@H](C)[C@H]12,Klebsiella pneumoniae,,"NDM-producing, neutropenic BALB/c mouse, thigh infection, thigh","dose not given, 6 h",,"bacterial burden, mean",8.4 log10 CFU/thigh
CN[C@H](CC(C)C)C(=O)N[C@H]1C(=O)N[C@@H](CC(N)=O)C(=O)N[C@H]2C(=O)N[C@H]3C(=O)N[C@H](C(=O)N[C@H](C(=O)O)c4cc(O)cc(O)c4-c4cc3ccc4O)[C@H](O)c3ccc(c(Cl)c3)Oc3cc2cc(c3O[C@@H]2O[C@H](CO)[C@@H](O)[C@H](O)[C@H]2O[C@H]2C[C@](C)(N)[C@H](O)[C@H](C)O2)Oc2ccc(cc2Cl)[C@H]1O,Streptococcus pneumoniae,,,,,MIC90,0.5 µg/mL
O=C(Cc1ccc(Cl)c(Cl)c1)N1CCCCC1CN1CCCC1 (stereo not shown),Plasmodium falciparum,,7G8,,,IC50,5.01 µM
CNC(=O)c1cc(Cl)cc(C)c1NC(=O)c1cc(Br)nn1-c1ncccc1Cl,Spodoptera litura,leaf-dip,third instar larvae,"12.5 ppm, 24 h",,mortality,10%
COC(=O)N[C@H](C(=O)N1CCC[C@H]1c1ncc(-c2ccc(-c3ccc(-c4cnc([C@@H]5CCCN5C(=O)[C@@H](NC(=O)OC)C(C)C)[nH]4)cc3)cc2)[nH]1)C(C)C,hepatitis C virus,HCV replicon,,"75% effect level, with: IFN-α, ratio 2.5:1",,combination index,0.75 and 0.64
CC(C)[C@@H]1NC(=O)[C@@H](CCCCN)NC(=O)[C@H]([C@@H](C)O)NC(=O)[C@@H](CCCCN)NC(=O)[C@H](Cc2c[nH]c3ccccc23)NC(=O)[C@@H](C)NC(=O)[C@@H](C(C)C)NC(=O)[C@@H](C)NC(=O)[C@H](Cc2c[nH]c3ccccc23)NC(=O)[C@@H](Cc2c[nH]c3ccccc23)NC1=O,Naegleria fowleri,,,trophozoites,,IC50,> 16 µg/mL
COc1ccccc1OCC(O)CN1CCN(CC(=O)Nc2c(C)cccc2C)CC1 (stereo not shown),Human coronavirus OC43,virus-induced cell killing,MRC-5,,,Emax,17.4%
CCCCCCCCCCCc1c([N+](=O)[O-])oc2ccc3ccccc3c12,Klebsiella pneumoniae,REMA,,,,MIC90,> 32 µg/mL
Fc1ccc(C(OCCCc2c[nH]cn2)c2ccc(F)cc2)cc1,Plasmodium falciparum,,D10,,,IC50,3.98 µM
NCCC[C@@H]1NC(=O)[C@@H](CCCN)NC(=O)[C@H](Cc2ccccc2)NC(=O)[C@@H](Cc2ccccc2)NC(=O)[C@H](Cc2ccccc2)NC(=O)[C@@H](CCCN)NC1=O,Acanthamoeba castellanii,,,trophozoites,,IC90,> 16 µg/mL
CS(=O)(=O)CCCn1c(Cn2c(=O)n(CC(F)(F)F)c3ccncc32)cc2cc(Cl)ccc21,respiratory syncytial virus,RT-qPCR,"hospitalized infants 1-24 months, nasal swab","oral, 1-9 mg/kg daily, day 28, all doses combined",reference: placebo,LS mean difference vs placebo,0.15 log10 copies/mL
O=C(NN=Cc1ccc(O)c(Br)c1)c1cccc(Br)c1,Cryptococcus neoformans,,,"concentration not given, with: tunicamycin",,MIC in combination,0.15 µg/mL
Cc1cc(Cl)cc(S(C)(=O)=O)c1NC(=O)c1cc(Br)nn1-c1ncccc1Cl,Spodoptera litura,leaf-dip,third instar larvae,"6.25 ppm, 24 h",,mortality,0%
COCC(C)n1c(SCC(=O)Nc2cc(C(F)(F)F)ccc2Cl)nc2ccccc2c1=O (stereo not shown),Plasmodium falciparum,"parasite growth, SYBR Green",3D7 wild type,72 h,,EC50,57.5 ± 9.3 nM
CC(C)[C@H]1NC(=O)[C@@H]([C@H](C)O)NC(=O)[C@H](CO)NC(=O)[C@@H](CCCNC(=N)N)NC(=O)CNC(=O)[C@H](Cc2ccccc2)NC(=O)[C@H]([C@@H](C)O)NC1=O,Naegleria fowleri,,,trophozoites,,IC90,> 16 µg/mL
Cn1c(=O)ccc2ccc(F)c(CCNC[C@H]3CN(c4cnc5c(n4)NC(=O)CO5)C(=O)O3)c21,Providencia spp.,,,,,MIC50,0.5 µg/mL
Cc1cccc(C(=O)N2CCN(Cc3cccc(NC(=O)c4cccs4)c3)CC2)c1,Plasmodium falciparum,"parasite growth, SYBR Green",3D7 DHODH E182D,72 h,,EC50,1190 ± 220 nM
C[C@@H](O)[C@@H]1NC(=O)[C@H](Cc2ccccc2)NC(=O)[C@@H](Cc2ccccc2)NC(=O)[C@H]([C@@H](C)O)NC(=O)[C@@H](CCCN)NC(=O)[C@H](CCCNC(=N)N)NC(=O)[C@@H](CCCN)NC1=O,Naegleria fowleri,,,trophozoites,,IC50,> 16 µg/mL
CN(C)CCOC(C)(c1ccccc1)c1ccccn1 (stereo not shown),Plasmodium falciparum,,3D7,,,IC50,12.6 µM
Cc1ccc2[nH]c3c(c2c1)CCCC3NCCc1ccccc1 (stereo not shown),Streptococcus pneumoniae,,,"concentration not given, 10% fetal bovine serum",reference: without serum,MIC fold change,4
CC(C)[C@@H]1NC(=O)[C@@H](Cc2ccccc2)NC(=O)[C@H](Cc2ccccc2)NC(=O)[C@@H]([C@H](C)O)NC(=O)[C@H]([C@@H](C)O)NC(=O)[C@@H](CCCNC(=N)N)NC1=O,Acanthamoeba castellanii,,,trophozoites,,IC50,> 16 µg/mL
COc1ccc(-n2ccnc2SCC(=O)Nc2cc(C)ccc2C)c(OC)c1,Plasmodium falciparum,"parasite growth, SYBR Green",,72 h,reference: 3D7-E182D over 3D7,EC50 ratio,4.3
CC[C@H](C)[C@H](NC(=O)[C@H](C)NC(=O)[C@H](CCCCN)NC(=O)[C@H](CC(C)C)NC(=O)[C@H](C)NC(=O)[C@@H](NC(=O)[C@H](Cc1c[nH]cn1)NC(=O)[C@H](CC(C)C)NC(=O)[C@@H](NC(=O)[C@@H](NC(=O)[C@H](CCCCN)NC(=O)[C@H](C)NC(=O)[C@H](C)NC(=O)[C@H](CO)NC(=O)[C@H](CCCCN)NC(=O)[C@H](Cc1ccccc1)NC(=O)[C@@H](NC(=O)[C@H](CCCCN)NC(=O)[C@H](CC(C)C)NC(=O)[C@H](Cc1ccccc1)NC(=O)[C@H](CO)NC(=O)[C@H](CCCCN)NC(=O)[C@H](Cc1c[nH]c2ccccc12)NC(=O)[C@H](CCCCN)NC(C)=O)[C@@H](C)O)[C@@H](C)O)C(C)C)[C@@H](C)O)C(=O)N[C@@H](CO)C(=O)N[C@@H](CO)C(N)=O,Citrobacter,,,20 strains,,MBC50,8 µg/mL
NCCCC[C@@H]1NC(=O)[C@@H](CCCCN)NC(=O)[C@H](CO)NC(=O)[C@H](Cc2c[nH]c3ccccc23)NC(=O)[C@@H](Cc2c[nH]c3ccccc23)NC(=O)[C@H](Cc2ccccc2)NC(=O)[C@@H](CCCCN)NC1=O,Naegleria fowleri,,,trophozoites,,IC50,> 16 µg/mL
COc1cc(N[C@H](C(=O)c2c[nH]c3ccc(OC(F)(F)F)cc23)c2ccc(Cl)cc2OC)cc(S(C)(=O)=O)c1,dengue virus 2,"viral infection, luciferase reporter virus",,"0.03 nM, 48 h",,inhibition,21.2%
CCCCOc1ccccc1C(=O)NCc1csc(-c2ccccc2)n1,Plasmodium falciparum,"parasite growth, SYBR Green",3D7 wild type,72 h,,EC50,436 ± 100 nM
C#Cc1cccc(C=NNC(=O)c2ccc(Br)c(Br)c2)c1O,Cryptococcus neoformans,,H99,"unit not given, with: amphotericin B",lower = more synergy,FICI,2
NCc1ccc(-c2nc(-c3ccc(OC(F)(F)F)cc3)no2)cc1,Clostridioides difficile,spore germination,ATCC 43255,"45 µM, 1 h",,inhibition,12 to 33%
CCC(=O)N1CCN(C(=O)c2ccccc2)CC1,Plasmodium falciparum,,HB3,,,IC50,3.16 µM
Cc1cc(Nc2ccc3c(c2)CCC3)n2ncnc2n1,Plasmodium falciparum,"parasite growth, SYBR Green",3D7 wild type,72 h,,EC50,2420 ± 690 nM
CC1(C)SC2C(NC(=O)C(NC(=O)C3=C(O)C(Cc4ccsc4)NC3=O)c3ccccc3)C(=O)N2C1C(=O)O (stereo not shown),Escherichia coli,broth microdilution,Keio mutant JW2142-1,,,MIC,25 µg/mL
C#Cc1ccc(O)c(C=NNC(=O)c2ccc(Br)cc2Br)c1,Cryptococcus neoformans,,H99,"unit not given, with: fluconazole",lower = more synergy,FICI,0.92
COc1ccccc1N1CCN(CCCCNC(=O)c2ccc3ccccc3c2)CC1,Plasmodium falciparum,,W2,,,IC50,2.51 µM
CCn1c(-c2ccccc2)cc2nnc3ccccc3c21,Plasmodium falciparum,"parasite growth, SYBR Green",,72 h,reference: 3D7-E182D over 3D7,EC50 ratio,2.2
CN(C)c1nc(NCc2ccc(OC(F)(F)F)cc2)c(/N=N/c2ccc(Cl)cc2)c(N(C)C)n1,Ostrinia furnacalis,leaf dipping,,"200 mg/L, 96 h",,mortality,100%
CC[C@H]1OC(=O)[C@H](C)[C@@H](O[C@H]2C[C@@](C)(OC)[C@@H](O)[C@H](C)O2)[C@H](C)[C@@H](O[C@@H]2O[C@H](C)C[C@H](N(C)C)[C@H]2O)[C@](C)(O)C[C@@H](C)CN(C)[C@H](C)[C@@H](O)[C@]1(C)O,Streptococcus pneumoniae,,,,,MIC90,> 32 µg/mL
Cc1ccc2c(c1)CC[C@@](CCN(C)CCCc1nc3ccccc3[nH]1)(OC(=O)C1CC1)[C@H]2C(C)C,Plasmodium falciparum,,W2,,,IC50,0.794 µM

# Repeated from above:
SMILES,organism,test,test system,conditions,how to read,measurement,result
CNCC(=O)N[C@@H](CO)C(=O)N[C@H]1[C@H](O)[C@@H](O)[C@H](n2ccc(N)nc2=O)O[C@@H]1C(N)=O,Pepper mild mottle virus,,,500 µg/mL,,inactivation activity,70% and 73%
C[C@@H](O)[C@H]1C(=O)N2C(C(=O)O)=C(S[C@@H]3CN[C@H](C(=O)N(C)C)C3)[C@H](C)[C@H]12,Klebsiella pneumoniae,,"NDM-producing, neutropenic BALB/c mouse, thigh infection, thigh","dose not given, 6 h",,"bacterial burden, mean",8.4 log10 CFU/thigh
CN[C@H](CC(C)C)C(=O)N[C@H]1C(=O)N[C@@H](CC(N)=O)C(=O)N[C@H]2C(=O)N[C@H]3C(=O)N[C@H](C(=O)N[C@H](C(=O)O)c4cc(O)cc(O)c4-c4cc3ccc4O)[C@H](O)c3ccc(c(Cl)c3)Oc3cc2cc(c3O[C@@H]2O[C@H](CO)[C@@H](O)[C@H](O)[C@H]2O[C@H]2C[C@](C)(N)[C@H](O)[C@H](C)O2)Oc2ccc(cc2Cl)[C@H]1O,Streptococcus pneumoniae,,,,,MIC90,0.5 µg/mL
O=C(Cc1ccc(Cl)c(Cl)c1)N1CCCCC1CN1CCCC1 (stereo not shown),Plasmodium falciparum,,7G8,,,IC50,5.01 µM
CNC(=O)c1cc(Cl)cc(C)c1NC(=O)c1cc(Br)nn1-c1ncccc1Cl,Spodoptera litura,leaf-dip,third instar larvae,"12.5 ppm, 24 h",,mortality,10%
COC(=O)N[C@H](C(=O)N1CCC[C@H]1c1ncc(-c2ccc(-c3ccc(-c4cnc([C@@H]5CCCN5C(=O)[C@@H](NC(=O)OC)C(C)C)[nH]4)cc3)cc2)[nH]1)C(C)C,hepatitis C virus,HCV replicon,,"75% effect level, with: IFN-α, ratio 2.5:1",,combination index,0.75 and 0.64
